# Measured values gathered from unrelated publications.
Structure (SMILES),organism,assay,test system,conditions,how to read,quantity,result
CCOc1cn(-c2ccc(F)cc2C)nc1C(=O)Nc1ccc(Oc2ccnc3cc(OC)c(OC)cc23)c(F)c1,murine hepatitis virus,"viral replication, nanoluciferase reporter",DBT,1 µM,baseline: DMSO vehicle,inhibition,19%
CC1(C)CC(=O)c2c(C(F)(F)F)nn(-c3ccc(C(N)=O)c(N[C@H]4CC[C@H](O)CC4)c3)c2C1,human alphaherpesvirus 1,,"primary human keratinocytes, K26 GFP",,baseline: CC50 over IC50,selectivity index,5.63
CCc1ccccc1C(=O)Nc1n[nH]c2c(C)c(F)c(C3C(C#N)=C(C)N(C)C(C)=C3C#N)cc12,murine hepatitis virus,"viral replication, nanoluciferase reporter",DBT,"1 µM, 10 h",baseline: DMSO vehicle,inhibition,-4%
Cn1c(=O)ccc2ccc(F)c(CCNC[C@H]3CN(c4cnc5c(n4)NC(=O)CO5)C(=O)O3)c21,Helicobacter pylori,,,,,MIC50,< 0.015 µg/mL
CC[C@H](C)C[C@H](C)CCCCCCCCC(=O)N[C@H]1C[C@@H](O)[C@@H](NCCN)NC(=O)[C@@H]2[C@@H](O)CCN2C(=O)[C@H]([C@H](O)CCN)NC(=O)[C@H]([C@H](O)[C@@H](O)c2ccc(O)cc2)NC(=O)[C@@H]2C[C@@H](O)CN2C(=O)[C@H]([C@@H](C)O)NC1=O,Clavispora lusitaniae,broth dilution,ATCC 34449,"48 h, 37 °C",,MFC,1 µg/mL
Cc1c2c(nn1C)CSCc1cc(n(C)n1)CSc1cc(c3ccccc3c1)OCCCc1c(C(=O)O)n(C)c3c-2c(Cl)ccc13,Staphylococcus aureus,"label-free proteomics, measured: katA",SA113,concentration not given,baseline: untreated,protein level fold change,5.78
N=C(N)NCCC[C@H](NC(=O)[C@H](Cc1c[nH]c2ccccc12)NC(=O)[C@H](CCCNC(=N)N)NC(=O)[C@H](Cc1c[nH]c2ccccc12)NC(=O)[C@H](Cc1c[nH]c2ccccc12)NC(=O)[C@H](Cc1c[nH]c2ccccc12)NC(=O)[C@H](CCCNC(=N)N)NC(=O)[C@H](Cc1c[nH]c2ccccc12)NC(=O)[C@@H](N)CCCNC(=N)N)C(=O)N[C@@H](Cc1ccccc1)C(N)=O,Candida albicans,broth microdilution,"CGMCC 2.209, RPMI 1640-MOPS","48 h, 30 °C, with: ZnCl2 8 µM",,MIC,8 µM
Cc1cccc2c(-c3ccncc3)c(-c3ccc(F)cc3)nn12,Aspergillus fumigatus,,,20 µM,baseline: untreated,metabolic activity,≥ 80%
CC(=O)N1CCN(c2ccc(OCC3COC(Cn4ccnc4)(c4ccc(Cl)cc4Cl)O3)cc2)CC1 (stereo not shown),Candida albicans,broth microdilution,"CGMCC 2.209, RPMI 1640-MOPS","48 h, 30 °C",,MIC,8 µM
COC(=O)N[C@H](C(=O)N1CCC[C@H]1c1ncc(-c2ccc(-c3ccc(-c4cnc([C@@H]5CCCN5C(=O)[C@@H](NC(=O)OC)C(C)C)[nH]4)cc3)cc2)[nH]1)C(C)C,Hepatitis C virus,,"replicon cells, genotype 1a","75% effect level, with: NS3 inhibitor, ratio 1:1",,combination index,0.99
CCc1c([N+](=O)[O-])oc2ccc3ccccc3c12,Mycobacterium avium subsp. hominissuis,REMA,ATCC 25291,,,MIC90,4 µg/mL
C=C(CC[C@@H](C)[C@H]1CC[C@H]2[C@@H]3CCC4=CC(=O)CC[C@]4(C)[C@H]3CC[C@]12C)C(C)C,Leishmania mexicana,"parasite growth, propidium iodide flow cytometry",promastigotes,48 h,,IC50,24 µM
O=C(O)c1ccc(-c2c[nH]c3ncc(-c4ccccc4)cc23)cc1C1CCCC1,murine hepatitis virus,"viral replication, nanoluciferase reporter",DBT,"1 µM, 10 h",baseline: DMSO vehicle,inhibition,28%
CC(=O)O[C@H]1C[C@H](O[C@H]2[C@@H](O)C[C@H](O[C@H]3[C@@H](O)C[C@H](O[C@H]4CC[C@@]5(C)[C@H](CC[C@@H]6[C@@H]5C[C@@H](O)[C@]5(C)[C@@H](C7=CC(=O)OC7)CC[C@]65O)C4)O[C@@H]3C)O[C@@H]2C)O[C@H](C)[C@H]1O[C@@H]1O[C@H](CO)[C@@H](O)[C@H](O)[C@H]1O,human alphaherpesvirus 1,,"primary human fibroblasts, K26 GFP",CC50 capped at 10.00 µM,baseline: CC50 over IC50,selectivity index,> 125
O=C1Nc2ccc(I)cc2C1=Cc1cc(Br)c(O)c(Br)c1,Aspergillus fumigatus,,,20 µM,baseline: untreated,metabolic activity,≥ 80%
CS(=O)(=O)CCCn1c(Cn2c(=O)n(CC(F)(F)F)c3ccncc32)cc2cc(Cl)ccc21,respiratory syncytial virus,RT-qPCR,"hospitalized infants 1-24 months, nasal swab","oral, 1-9 mg/kg daily, day 5, all doses combined",baseline: placebo,LS mean difference vs placebo,-1.05 log10 copies/mL
CCCC(CCC)C(=O)Nc1ccccc1O,Artemia franciscana,"LC-MS/MS metabolomics, measured: 1-aminocyclopropanecarboxylic acid",larvae,"concentration not given, 24 h, LC10 concentration",baseline: vehicle,fold change,1.67
CC(C)NC(=O)N1CC[C@@H](NC2=Nc3cc(F)ccc3N(CC(F)F)c3ccc(Cl)cc32)C1,murine hepatitis virus,"viral replication, nanoluciferase reporter",DBT,1 µM,baseline: DMSO vehicle,inhibition,-32%
O=[N+]([O-])c1cc2c(ccc3c2ccc2cc([N+](=O)[O-])oc23)o1,Enterobacter cloacae,REMA,,,,MIC90,> 32 µg/mL
COc1cc(Nc2ccnc3ccc(Br)cc23)cc(OC)c1OC,murine hepatitis virus,"viral replication, nanoluciferase reporter",DBT,"1 µM, 10 h",baseline: DMSO vehicle,inhibition,4%
CC[C@H](C)[C@H](NC(=O)[C@H](C)NC(=O)[C@H](CCCCN)NC(=O)[C@H](CC(C)C)NC(=O)[C@H](C)NC(=O)[C@@H](NC(=O)[C@H](Cc1c[nH]cn1)NC(=O)[C@H](CC(C)C)NC(=O)[C@@H](NC(=O)[C@@H](NC(=O)[C@H](CCCCN)NC(=O)[C@H](C)NC(=O)[C@H](C)NC(=O)[C@H](CO)NC(=O)[C@H](CCCCN)NC(=O)[C@H](Cc1ccccc1)NC(=O)[C@@H](NC(=O)[C@H](CCCCN)NC(=O)[C@H](CC(C)C)NC(=O)[C@H](Cc1ccccc1)NC(=O)[C@H](CO)NC(=O)[C@H](CCCCN)NC(=O)[C@H](Cc1c[nH]c2ccccc12)NC(=O)[C@H](CCCCN)NC(C)=O)[C@@H](C)O)[C@@H](C)O)C(C)C)[C@@H](C)O)C(=O)N[C@@H](CO)C(=O)N[C@@H](CO)C(N)=O,Acinetobacter baumannii,,ATCC 19606,,,MBC range,2 µg/mL
Cc1nc(C2CCN(C(=O)c3ccc(OC(F)(F)F)cc3N)CC2)c2ncc(N3CCN(C)CC3)cc2n1,murine hepatitis virus,"viral replication, nanoluciferase reporter",DBT,"1 µM, 10 h",baseline: DMSO vehicle,inhibition,16%
Nc1ncnc2c1ncn2[C@@H]1O[C@@H]2COP(=O)(O)O[C@H]3[C@@H](O)[C@H](n4cnc5c(=O)[nH]cnc54)O[C@@H]3COP(=O)(O)O[C@H]2[C@H]1O,West Nile virus,"RNA sequencing Reactome analysis, measured: Immune System (R-HSA-168256)",HFF-1,"concentration not given, upregulated pathways, with: West Nile virus infection",baseline: WNV-infected without compound,fold enrichment,2.49
CN(C)CCCn1cc(C2=C(c3c[nH]c4ccccc34)C(=O)NC2=O)c2ccccc21,murine hepatitis virus,"viral replication, nanoluciferase reporter",DBT,1 µM,baseline: DMSO vehicle,inhibition,37%
C[C@H](NC(=O)[C@H](CCCNC(=N)N)NC(=O)[C@H](Cc1c[nH]c2ccccc12)NC(=O)[C@H](CCCNC(=N)N)NC(=O)[C@H](Cc1c[nH]c2ccccc12)NC(=O)[C@H](Cc1c[nH]c2ccccc12)NC(=O)[C@H](Cc1c[nH]c2ccccc12)NC(=O)[C@H](CCCNC(=N)N)NC(=O)[C@H](Cc1c[nH]c2ccccc12)NC(=O)[C@H](CCCNC(=N)N)NC(=O)CN)C(N)=O,Candida albicans,broth microdilution,"SP3931, RPMI 1640-MOPS","48 h, 30 °C",,MIC,8 µM

# For quick reference, copied from above:
Structure (SMILES),organism,assay,test system,conditions,how to read,quantity,result
CC[C@H](C)[C@H](NC(=O)[C@H](C)NC(=O)[C@H](CCCCN)NC(=O)[C@H](CC(C)C)NC(=O)[C@H](C)NC(=O)[C@@H](NC(=O)[C@H](Cc1c[nH]cn1)NC(=O)[C@H](CC(C)C)NC(=O)[C@@H](NC(=O)[C@@H](NC(=O)[C@H](CCCCN)NC(=O)[C@H](C)NC(=O)[C@H](C)NC(=O)[C@H](CO)NC(=O)[C@H](CCCCN)NC(=O)[C@H](Cc1ccccc1)NC(=O)[C@@H](NC(=O)[C@H](CCCCN)NC(=O)[C@H](CC(C)C)NC(=O)[C@H](Cc1ccccc1)NC(=O)[C@H](CO)NC(=O)[C@H](CCCCN)NC(=O)[C@H](Cc1c[nH]c2ccccc12)NC(=O)[C@H](CCCCN)NC(C)=O)[C@@H](C)O)[C@@H](C)O)C(C)C)[C@@H](C)O)C(=O)N[C@@H](CO)C(=O)N[C@@H](CO)C(N)=O,Acinetobacter baumannii,,ATCC 19606,,,MBC range,2 µg/mL
CCCC(CCC)C(=O)Nc1ccccc1O,Artemia franciscana,"LC-MS/MS metabolomics, measured: 1-aminocyclopropanecarboxylic acid",larvae,"concentration not given, 24 h, LC10 concentration",baseline: vehicle,fold change,1.67
CCc1ccccc1C(=O)Nc1n[nH]c2c(C)c(F)c(C3C(C#N)=C(C)N(C)C(C)=C3C#N)cc12,murine hepatitis virus,"viral replication, nanoluciferase reporter",DBT,"1 µM, 10 h",baseline: DMSO vehicle,inhibition,-4%
